Experimental data of several laboratories.
Each numbered part is a random draw from the data of one study; scales do not carry over between parts. Several values in a cell are separate wells, animals, samples, runs or records. Positions count from the first letter of the parent shown.
Sequence of UniProt Q9UKS7 (whole entry, looked up): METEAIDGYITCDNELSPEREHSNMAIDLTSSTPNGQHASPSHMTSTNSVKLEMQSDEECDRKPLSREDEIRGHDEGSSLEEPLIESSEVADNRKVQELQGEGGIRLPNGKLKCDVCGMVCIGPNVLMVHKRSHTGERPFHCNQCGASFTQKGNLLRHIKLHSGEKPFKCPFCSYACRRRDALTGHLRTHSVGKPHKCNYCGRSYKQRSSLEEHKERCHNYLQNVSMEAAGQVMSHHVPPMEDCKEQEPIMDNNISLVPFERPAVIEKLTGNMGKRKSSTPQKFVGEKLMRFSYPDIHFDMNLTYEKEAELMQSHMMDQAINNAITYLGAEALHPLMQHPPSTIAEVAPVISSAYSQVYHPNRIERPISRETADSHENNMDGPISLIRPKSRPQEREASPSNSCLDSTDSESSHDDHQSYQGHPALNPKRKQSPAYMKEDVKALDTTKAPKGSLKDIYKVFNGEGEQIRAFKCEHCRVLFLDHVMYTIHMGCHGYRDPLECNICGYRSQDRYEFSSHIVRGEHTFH
Sequence of UniProt Q96SW2 (whole entry, looked up): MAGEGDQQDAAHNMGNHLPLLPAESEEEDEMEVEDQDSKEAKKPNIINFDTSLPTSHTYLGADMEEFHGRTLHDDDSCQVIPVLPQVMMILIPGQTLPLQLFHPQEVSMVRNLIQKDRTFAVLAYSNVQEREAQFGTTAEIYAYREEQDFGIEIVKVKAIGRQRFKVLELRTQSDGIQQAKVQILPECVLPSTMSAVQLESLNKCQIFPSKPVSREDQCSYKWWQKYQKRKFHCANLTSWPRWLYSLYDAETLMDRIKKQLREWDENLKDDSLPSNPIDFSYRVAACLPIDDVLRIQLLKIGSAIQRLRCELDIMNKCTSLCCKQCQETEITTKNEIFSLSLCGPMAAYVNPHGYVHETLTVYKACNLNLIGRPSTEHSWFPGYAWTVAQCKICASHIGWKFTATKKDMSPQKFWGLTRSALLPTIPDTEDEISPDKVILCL

Study 1
Structure (SMILES): CC[C@@H](C)c1nc2cc(Nc3ccnc4ccc(S(=O)(=O)C(C)C)cc34)ccc2s1.Cl
cell line | test | setting | viability
L929 | CCK-8 | 6.25 µM, together with: zVAD | 105% and 109% and 106%
HT-29 | necroptosis protection, CCK-8 | 2.5 µM, together with: TNF-α SMAC mimetic zVAD | 58% and 68.5% and 86% and 64%
L929 RIPK3 knockout |  | 100 µM | 42.5% and 40.8% and 35.8% and 48.6% and 49.1%
L929 | CCK-8 | 1.563 µM | 101% and 102% and 99.1%
HT-29 | necroptosis protection, CCK-8 | 10 µM, together with: TNF-α SMAC mimetic zVAD | 87.7% and 90.1% and 105% and 94.7% and 75.8%
L929 | CCK-8 | 6.25 µM | 107% and 109%

Study 2 — method: RNAcompete; form: RNA; matrix: in vitro; tested at: 20 nM; notes: 7-mer, probes averaged, single round; reference: mean of 7-mers; direction: higher = stronger binding
Target: PABPC1L2, full length, GST fusion (mouse, UniProt A0ABA7IW68)
Target sequence (chain): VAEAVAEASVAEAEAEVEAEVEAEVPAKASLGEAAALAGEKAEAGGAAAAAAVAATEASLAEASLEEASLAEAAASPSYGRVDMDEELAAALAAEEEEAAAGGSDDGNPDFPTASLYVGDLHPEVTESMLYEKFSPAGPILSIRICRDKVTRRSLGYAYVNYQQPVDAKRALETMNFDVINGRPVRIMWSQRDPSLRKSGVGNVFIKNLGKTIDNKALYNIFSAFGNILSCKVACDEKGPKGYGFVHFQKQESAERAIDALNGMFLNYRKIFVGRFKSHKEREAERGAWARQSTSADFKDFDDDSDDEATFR
Oligonucleotide | 7-mer Z-score
GCGUAGU | -0.175
UACGUAC | -0.157
UUAGUAA | 0.000733
GUUACGU | -0.315
UGCACGG | -0.0337
UAGCGUG | -0.2
UAUAUCU | -0.151
CCAUGAU | -0.146

Study 3 — method: protein-binding microarray; form: double-stranded DNA, one strand shown; matrix: in vitro; tested at: not given; direction: higher = stronger binding
Target: Max-binding protein MNT, bHLH-zipper, MAX partner unstated (MNT, Homo sapiens, UniProt Q99583, residues 220-300)
Notes: k-mer, scored over probes, only values ≥0.25
Residues (chain): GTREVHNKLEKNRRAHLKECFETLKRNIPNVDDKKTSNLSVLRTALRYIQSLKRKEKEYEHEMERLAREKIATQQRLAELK
Oligonucleotide | E-score
CACGTGAA | 0.487
GTGCGCAC | 0.351
CCATGCCA | 0.313
CACGCGGG | 0.455
CATCATGC | 0.282
CGTGGTAC | 0.371
CATGCAAC | 0.348
ACGTGACT | 0.426

Study 4 — target: CCNB2, cyclin fold, Cln2 fusion (human); method: yeast growth competition, sequencing; matrix: yeast; notes: weak parent motif; reference: not given; direction: higher = stronger binding
Starting sequence: viral docking peptide; KGVKRKLFAEDSS; partner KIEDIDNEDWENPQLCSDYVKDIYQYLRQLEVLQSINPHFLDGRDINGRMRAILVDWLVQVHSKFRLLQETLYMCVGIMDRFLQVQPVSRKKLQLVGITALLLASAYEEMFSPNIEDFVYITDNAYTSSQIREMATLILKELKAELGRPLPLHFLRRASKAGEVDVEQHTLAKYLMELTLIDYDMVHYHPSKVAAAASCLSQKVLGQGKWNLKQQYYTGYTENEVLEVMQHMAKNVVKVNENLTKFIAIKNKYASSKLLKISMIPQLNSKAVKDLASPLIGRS
Substitution | normalised enrichment score
KGVKRKLFKEDSS [A9K] | 0.532
KGVKRKLFIEDSS [A9I] | 1.2
KGVKRKLFAEDLS [S12L] | 0.856
KQVKRKLFAEDSS [G2Q] | 0.951
KGVYRKLFAEDSS [K4Y] | 0.176
KYVKRKLFAEDSS [G2Y] | 0.289
KGVKRKLFAEQSS [D11Q] | 0.136
KGVKRKLFAFDSS [E10F] | 0.577
KGVKRKLLAEDSS [F8L] | 0.433
KGVKEKLFAEDSS [R5E] | 0.25
KGVKDKLFAEDSS [R5D] | 0.127
KGNKRKLFAEDSS [V3N] | 0.13
KGVKPKLFAEDSS [R5P] | -0.27
KGQKRKLFAEDSS [V3Q] | -0.144
KNVKRKLFAEDSS [G2N] | 0.312
KPVKRKLFAEDSS [G2P] | 1.16
KGVKRKNFAEDSS [L7N] | 0.208
KGIKRKLFAEDSS [V3I] | 1.01
KGVKRKLFSEDSS [A9S] | 0.578
KGVKGKLFAEDSS [R5G] | -0.32
KGVKRKLFAEDPS [S12P] | 1.14
KGVKRKSFAEDSS [L7S] | 0.368
KGVKRKGFAEDSS [L7G] | 0.379
KGVKRKLFAEDRS [S12R] | 0.614
KGVKRKLFPEDSS [A9P] | 0.373

Study 5 — method: protein-binding microarray; form: double-stranded DNA, one strand shown; matrix: in vitro; tested at: 2200 nM top; notes: 60-bp whole probe; together with: salmon DNA 0.4 mg/ml; reference: random background probes; direction: higher = stronger binding; all sequences stand within: GCCTAGCAC … GTCTTGATTCGCTTGACGCTGCTG
Target: Interferon regulatory factor 7, full length, phosphomimetic (IRF7, Homo sapiens, UniProt Q92985, residues 1-503, S471D/S472D/S475D/S476D/S477D/S483D/S484D/S487D)
Sequence of UniProt Q92985 (whole entry, unmodified, looked up): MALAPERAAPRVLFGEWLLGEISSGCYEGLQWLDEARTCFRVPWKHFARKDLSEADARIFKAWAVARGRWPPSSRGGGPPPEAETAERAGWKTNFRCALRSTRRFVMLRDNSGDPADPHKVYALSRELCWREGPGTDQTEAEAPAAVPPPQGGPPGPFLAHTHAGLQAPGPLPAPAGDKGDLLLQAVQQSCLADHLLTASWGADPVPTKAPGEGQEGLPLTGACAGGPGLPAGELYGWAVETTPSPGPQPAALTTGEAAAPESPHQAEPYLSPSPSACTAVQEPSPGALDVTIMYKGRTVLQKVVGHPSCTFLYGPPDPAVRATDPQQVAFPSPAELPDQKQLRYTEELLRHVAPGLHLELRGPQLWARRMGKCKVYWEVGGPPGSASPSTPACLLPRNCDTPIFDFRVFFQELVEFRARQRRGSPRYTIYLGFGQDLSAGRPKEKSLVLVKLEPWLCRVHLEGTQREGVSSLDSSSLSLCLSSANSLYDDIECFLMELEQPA
Oligonucleotide | fitted relative affinity
GACGGTTTCCTTCTCCTAACGTGCTAG | 3.11 z-score
TCACACCTCTAGACTCTAACTGTGCTA | 0.906 z-score
TTTGGTGTCTTTTGTGGAAACGTGCTA | 1.02 z-score
CAGGGGCTGCCTGGATGCCGGTGCTAG | -1.69 z-score
GACGAACTGAGTCTCCAGACGTGCTAG | 0.0243 z-score
TACTCTCCAGGGTTTCTCTTTGTGCTA | 2.16 z-score
GACGATATCAGTATCGAGGCGTGCTAG | 0.38 z-score
TTAGGTTCCGGTCTCGGTTAGTGCTAG | 1.56 z-score

Mixed results
Compound | target | test | test system | setting | endpoint | result
O=C1CCC(N2Cc3c(ccc4c3OCC43CCN(Cc4ccccn4)CC3)C2=O)C(=O)N1 (centres unmarked) | CRBN/Zinc finger protein Helios (Homo sapiens, UniProt Q96SW2+Q9UKS7) | degrader, HiBiT | HEK293 | 370.37 nM | protein remaining | 52.9%

A few entries again (study 2):
Oligonucleotide | 7-mer Z-score
UUAGUAA | 0.000733
GUUACGU | -0.315
UGCACGG | -0.0337
UAGCGUG | -0.2
